Measured values from different studies.
Each line is one published result; not all experiments were run side by side. “And” joins repeats or separate records; there may be more than shown. Numbers after ± are the reported error.

`O=C(O)CCC(=O)O.[2H]C([2H])([2H])Oc1cc(C)c2[nH]ccc2c1CN1CC[C@@H](C2CC2)C[C@H]1c1ccc(C(=O)O)cc1`: “subjects with dental ulcer TEAE” 0% (multiple ascending dose; healthy Chinese subjects; 125 mg twice daily).
`CNC(=O)c1ccc(-c2cnc3ncc(Cc4ccc5ncccc5c4)n3n2)cc1F` — result for “patients with adverse event”: 0% (item: Cough; gastric cancer patients; oral, 600 mg twice daily, expansion cohort, grade 3-4).
For `CCOc1c([C@H](C)n2nc(C)c3c(N)ncnc32)cc(Cl)c(F)c1[C@@H]1CNC(=O)C1`, the ECG observations was 100% (item: QRS ≤100 ms; previously treated B-cell malignancy; oral, 5 mg once daily, baseline below thresholds).
With `O=C(O)CSc1nnc(Br)n1-c1ccc(C2CC2)c2ccccc12` the body weight was 36.9 g and 41.2 g and 37.9 g and 33.3 g and 32.2 g and 38 g (KM mouse, chronic hyperuricaemia model; dose not given, day 23).
The hepatic clearance of `CN(CCC#N)C(=O)c1ccc(C2CCCCC2)cc1` is reported as 79 mL/min/kg (hepatocyte stability; cryopreserved mouse hepatocytes; 1 µM).
The Cmax ratio of `Cc1nc2cccc(OCC(C)(C)C(=O)NC(C)C)c2c(N)c1C(=O)O` is reported as 0.83 ± 0.28 (Sprague-Dawley rat, male, plasma; oral, 30 mg/kg, day 7 over day 1, 7-day repeated dosing; reference: day 7 over day 1).
For `O=C(NCc1cc[nH]n1)c1ccc(C2CCCCC2)cc1`, the hepatic clearance was 27 mL/min/kg (liver microsome stability; dog liver microsomes; 1 µM).
For `CC(C)n1c(Nc2cccnc2)nc2cnc(Nc3ccc(N4CCN(C)CC4)cc3)nc21`, “subjects with adverse event” read 0% (item: eosinophil count increased; healthy male subjects; oral, 100 mg, study, added: itraconazole).
With `COCCC(=O)Nc1ccc([C@H]2[C@@H](F)[C@@H](F)C[C@@H](F)[C@H]2F)cc1` the hepatic clearance was 7.6 mL/min/kg (liver microsome stability; dog liver microsomes; 1 µM).
`CCO[C@H]1CCN(Cc2c(OC)cc(C)c3[nH]ccc23)[C@H](c2ccc(C(=O)O)cc2)C1` — result for “incidence reverse T3 increase”: 14.3% (PNH patients, active haemolysis; oral, 100 mg, treatment).
For `CC(=O)N[C@@H](CS)C(=O)O`, “true systemic bioavailability” read 78.1% (human; oral, 1.2 g).
`CC(C(=O)NCC(=O)NCC(CNC(=O)CNC(=O)C(C)N1CCN(CC(=O)[O-])CCN(CC(=O)[O-])CCN(CC(=O)[O-])CC1)(CNC(=O)CNC(=O)C(C)N1CCN(CC(=O)[O-])CCN(CC(=O)[O-])CCN(CC(=O)[O-])CC1)CNC(=O)CNC(=O)C(C)N1CCN(CC(=O)[O-])CCN(CC(=O)[O-])CCN(CC(=O)[O-])CC1)N1CCN(CC(=O)[O-])CCN(CC(=O)[O-])CCN(CC(=O)[O-])CC1.[Gd+3].[Gd+3].[Gd+3].[Gd+3]` (stereo not drawn) has a Gd concentration of 1.2 nmol/g (ICP-MS; rat, femur epiphysis; intravenous, 0.6 mmol Gd/kg, 1 week).
Under “mean blood pressure”, `CCN1/C(=C/C(C)=O)Sc2ccc(F)cc21` is recorded as 90 ± 2 mmHg (cynomolgus monkey; oral, 100 mg/kg, 4 h post-dose).
`C[C@@H](N)C1CCN(S(=O)(=O)c2cccc3cnccc23)CC1`: “participants with mental impairment” 0% (healthy volunteers; 150 mg, fasted).
For `O=c1ccc2c(OCCCCOc3ccccc3)c3ccoc3cc2o1`, “trough plasma concentration” read 290 ± 120 nM (HPLC-MS; Lewis rat, plasma; oral gavage, 50 mg/kg daily for 6 months, 24 h post-dose).
For `NC1(C(=O)N[C@@H](CCO)c2ccc(Cl)cc2)CCN(c2nc[nH]c3nccc2-3)CC1`, “incidence of Anaemia” read 0% (metastatic CRPC patients; dose not given, grade 3 to 4, treatment-related, all doses, added: enzalutamide 160 mg daily).
With `CN(C(=O)n1cnc(-c2cccnc2)c1)C1CCCCC1` the concentration was 9.7 ± 0.2 ng/g (Wistar rat, hippocampus; oral, 10 mg/kg/day of BIA 10-2474, 72 h, repeated 5 days).
`CC(C)C[C@@H]1NC(=O)CN(C)C(=O)[C@H](Cc2ccccc2)NCC2=CC=C(CNC1=O)O2` gave a -log Pe of 5.88 + 0.04 (PAMPA; 2% lecithin in dodecane; 100 µM, 17 h, pH 6.4, 37 °C).
`Cn1cc(Nc2nccc(-c3ccc4c(c3)CN(C3COC3)CC[C@H]4NC(=O)c3cn(C(C)(C)C)nn3)n2)cn1` — result for “CD3+ T cell count change”: -2.17% (human, whole blood; 300 mg twice daily, day 7; reference: pre-dose baseline).
With `CC1(C)C(/C=C/C=C/C=C/C=C2\N(CCCCS(=O)(=O)O)c3ccc4ccccc4c3C2(C)C)=[N+](CCCCS(=O)(=O)[O-])c2ccc3ccccc3c21` the excitation maximum was 795 nm (toluene; 20 °C).
`C=CCN1CC(=O)N2[C@@H](Cc3ccc(O)cc3F)C(=O)N(Cc3cccc(N4CC(N5CCN(CC)CC5)C4)n3)C[C@@H]2N1C(=O)NCc1ccccc1`: “treatment-related adverse events” 0% (item: Malaise; advanced solid tumour patients; oral, 100 mg twice daily, expansion part, grade ≥3).
With `CC(C)C[C@@H]1NC(=O)[C@H](CCCCN)NC(=O)[C@H](CC(N)=O)NC(=O)[C@H](CCCNC(=N)N)NC(=O)[C@H]([C@@H](C)O)NC(=O)[C@@H]2CSSC[C@@H]3NC(=O)[C@H]([C@@H](C)O)NC(=O)CNC(=O)CNC(=O)[C@H](C(C)C)NC(=O)[C@@H]4CSSC[C@H](NC(=O)[C@H](CCCCN)NC(=O)[C@H](CSSC[C@H](NC(=O)[C@H](C(C)C)NC(=O)[C@@H]5CCCN5C1=O)C(=O)NCC(=O)N[C@@H](CCC(=O)O)C(=O)N[C@@H]([C@@H](C)O)C(=O)N4)NC(=O)CNC(=O)[C@@H]1CCCN1C(=O)[C@H]([C@@H](C)O)NC(=O)[C@H](CC(N)=O)NC3=O)C(=O)N[C@@H](CO)C(=O)N[C@@H](Cc1c[nH]c3ccccc13)C(=O)N1CCC[C@H]1C(=O)N[C@@H](C(C)C)C(=O)N2` the remaining peptide was 98.3 ± 0.5% (HPLC; water; 180 µM, 14 days, 37 °C, deamidation stability).
For `CCCn1cc(C)c2c(=O)[nH]c(-c3cc(S(=O)(=O)N4CCN(CC)CC4)ccc3OCC)nc21`, “TEAE of CTCAE grade ≥3” read 0% (human; concentration not given).
The AUC(0-96 h) of `Cn1nc2c(=O)n(C3CC3)cnc2c1[C@](O)(c1cnc(C(F)(F)F)c(Cl)c1)C(F)(F)F` is reported as 31.2 µM·h (humanized SCID mice, blood; 1 mg/kg once daily, 6 days, infected).
`CC(C)(c1ccc(O)cc1)c1ccc(O)cc1` — result for “dose fraction in skim milk”: 56.7% (whole cow milk; 2000 nM nominal).
For `C[C@@H]1OC(=O)[C@H](Cc2ccccc2)[C@H]1O`, the KFoc was 218 mL/g (soil adsorption; clay soil; pH 7.6, organic carbon 1.7 %).
`O=C1OC2(c3ccc(O)cc3Oc3cc(O)ccc32)c2ccccc21` has a saturation concentration of 10 to 25 µM (confocal imaging; cargo-loaded PSP-2 coacervates in Opti-MEM; concentration not given, added: cargo 5 µM).
For `CN(C)CCC(=O)Nc1ccc([C@H]2[C@@H](F)[C@@H](F)C[C@@H](F)[C@H]2F)cc1`, the hepatic clearance was 70 mL/min/kg (liver microsome stability; mouse liver microsomes; 1 µM).
The KFoc of `COc1ccnc(C(N)=O)c1O` is reported as 669 mL/g (soil adsorption; clay soil; pH 7.6, organic carbon 1.7 %).
`CSCC[C@H](NC(=O)[C@@H](N)CCSC)C(=O)N[C@@H](CCCNC(=N)N)C(=O)N[C@@H](Cc1c[nH]c2ccccc12)C(=O)N[C@@H](CO)C(=O)N[C@@H](CCCNC(=N)N)C(=O)N[C@@H](CCCCN)C(=O)N[C@@H](CCSC)C(=O)N1CCC[C@H]1C(=O)N[C@@H](CS)C(=O)N[C@H](C(=O)N[C@@H](CO)C(N)=O)C(C)C` has a remaining activity of 3 ± 1% (12G5 competition, SUP-T1 cells; human plasma; concentration not given, 2 h).
Under “subjects with cardiac disorders”, `Cc1cc(-c2nccc3c2ccn3CC(=O)Nc2ccc(-c3cnccn3)cn2)ccn1` is recorded as 0% (human; 15 mg once daily, multiple ascending dose).
With `CN1CCC(c2ccc(-c3ccc(C4CCCCC4)cc3)cn2)CC1` the hepatic clearance was 64 mL/min/kg (liver microsome stability; mouse liver microsomes; 1 µM).
`Cc1cn(C(=O)c2c(-c3c(Cl)cc(Cl)cc3Cl)noc2C(C)(C)F)c2cccc(/C=C/C(=O)O)c12` has an AUC(0-8h) of 175 µg·h/mL (human patients; 1400 mg bid, cycle 1 day 1).
`COc1cc(C(=O)NC2CCN(C)CC2)c(F)cc1Nc1ncc(C(F)(F)F)c(Oc2cccc3c2C(=O)N(C)C3)n1` — result for “dose-normalised AUC(tau) at steady state”: 265 nmol·h/L per mg (human patients, plasma; oral, 300 mg once daily repeated, geometric mean).
With `Cc1cc(Nc2ccc(S(F)(F)(F)(F)F)cc2)n2nc(C(C)(F)F)nc2n1` the AUC(0-168 h) was 1080 µg·h/mL (LC-MS/MS; human vivax malaria patients, plasma; oral, 800 mg, mean).
For `COC(=O)N[C@@H](C)CNc1nccc(-c2cn(C(C)C)nc2-c2cc(Cl)cc(NS(C)(=O)=O)c2F)n1`, the AUCinf increase was ~83% and 83% and ~80% (human, plasma; oral, 50 mg, single dose, geometric mean, added: diltiazem; reference: compound alone).
With `O=C(OC(C(F)(F)F)C(F)(F)F)N1CCN(Cc2cccc(Oc3ccccc3)c2)CC1` the k2 was 0.105 min⁻¹ (PET blocking study; rhesus monkey, brain CB; 0.01 mg/kg, compound pretreatment, added: [18F]T-401 tracer).
Under “patients with erythema”, `O=C(Nc1nc2cccc(-c3ccc(CN4CCS(=O)(=O)CC4)cc3)n2n1)C1CC1` is recorded as 8.3% (rheumatoid arthritis patients; oral, 200 mg once daily, 4 weeks, regardless of relatedness).
With `O=c1ccc2ccc(O)cc2o1` the intrinsic clearance was 749 µL/min/mg protein (human liver microsomes).
`O=S(=O)(c1ccc(-c2ccc3nccc(Nc4ccncn4)c3c2)cc1)N1CCOCC1` gave a brain concentration of 60.4 ng/mL (female BALB/c mice, brain homogenate; intraperitoneal, 10 mg/kg, 0.25 h, mean).
`CNCc1ccc(-c2[nH]c3cc(F)cc4c3c2CCNC4=O)cc1` has a dysgeusia incidence of 0% (human patients; oral, 600 mg twice daily, grade 5).
`O=C(Nc1cnccc1Cl)N1CCN(Cc2ccc3c(c2)OC(F)(F)O3)CC1`: “hepatic enzyme increased” 0% (multiple ascending dose; young men; 75 mg, treatment-emergent adverse events).
`Cc1ccc([C@@H]2O[C@H](CO)[C@@H](O)[C@H](O)[C@H]2O)cc1Cc1ccc(-c2ccc(F)cc2)s1`: “urinary phosphate excretion change” 116 mg (item: inorganic phosphorus; Japanese type 2 diabetes patients; 400 mg, day 18, 24 h urine collection; reference: baseline).
`c1ccc(-c2nc(N3CCC(c4ccccn4)C3)c3ccccc3n2)nc1` (stereo not drawn) has an MRT(0-inf) of 3.2 h (female Balb/c mice, plasma; intravenous, 2 mg/kg, mean, added: ABT 2 h prior).
`C=CC[C@@H]1/C=C(\C)C[C@H](C)C[C@H](OC)[C@H]2O[C@@](O)(C(=O)C(=O)N3CCCC[C@H]3C(=O)O[C@H](/C(C)=C/[C@@H]3CC[C@@H](O)[C@H](OC)C3)[C@H](C)[C@@H](O)CC1=O)[C@H](C)C[C@@H]2OC` gave a plasma Mg2+ of 0.65 ± 0.04 mmol/L (Wistar Kyoto rat, male, plasma; ip, 0.5 mg/kg/day, day 18).
Under “subjects with adverse event”, `CC(C)c1nc(N(C)S(C)(=O)=O)nc(-c2ccc(F)cc2)c1/C=C/[C@@H](O)C[C@@H](O)CC(=O)O` is recorded as 4.5% (item: infections and infestations; healthy men; oral, dose not given, 8 days, treatment-emergent, crossover trial).
`N#Cc1ccc2c(c1)[C@H]1CCCN(C(=O)c3ccc4[nH]cnc4c3)[C@H]1C2`: “mean ACTH level” 6.3 pmol/L (human; 10 mg, end of trial).
For `CC(C)(C(=O)N1CCOc2c(C#N)cncc2C1)C(F)F`, “subjects with adverse event” read 16.7% (item: Investigations; human; oral, 10 mg, CSF pharmacokinetic cohort).
`Cc1ccc(CCC(=O)Nc2nnc(S(N)(=O)=O)s2)cc1` has an unbound fraction of 0.35 (mouse, plasma).
`NC(=O)N1c2ccccc2CC(O)c2ccccc21` (stereo not drawn): “volume of distribution” 40 L (population PK modelling; human patients, plasma; dose not given, weight-scaled, estimated exponents).
`CCN1CCN(Cc2ccc(NC(=O)c3ccc(C)c(NC(=O)c4cncc(-c5cccs5)c4)c3)cc2C(F)(F)F)CC1` — result for “mean plasma concentration”: 482 ng/mL (LC-MS/MS; C57BL/6 mouse, plasma; intraperitoneal, 20 mg/kg single dose, 1 h).
`c1ncc(-c2ccc(C3CCCCC3)cc2)cn1` has a hepatic clearance of 36 mL/min/kg (liver microsome stability; cynomolgus liver microsomes; 1 µM).
Under “patients with adverse event”, `COc1cc(Nc2ncc3c(n2)-c2ccc(Cl)cc2C(c2c(F)cccc2OC)=NC3)ccc1C(=O)O` is recorded as 13% (item: Hypokalemia, grade 1; cancer patients, phase 1/2; oral, dose not given, added: pembrolizumab).
For `O=C(c1ccc([C@H]2[C@@H](F)[C@@H](F)C[C@@H](F)[C@H]2F)cc1)N1CC(O)C1`, the hepatic clearance was 23 mL/min/kg (liver microsome stability; mouse liver microsomes; 1 µM).
`C#C[C@]1(CO)O[C@@H](n2cnc3c(N)nc(F)nc32)C[C@@H]1O` gave an AUC(0-168 h) of 1.4 µM·h (human, plasma; oral, 15 mg single dose, extrapolated beyond 96 h).
`CN[C@@H](C)C(=O)N[C@H]1CN(S(=O)(=O)c2cccc(S(=O)(=O)N3CC[C@H]4CC[C@@H](C(=O)NC(c5ccccc5)c5ccccc5)N4C(=O)[C@@H](NC(=O)[C@H](C)NC)C3)c2)CC[C@H]2CC[C@@H](C(=O)NC(c3ccccc3)c3ccccc3)N2C1=O` has an AUC(0-t) of 0.00749 ± 0.00239 µg·h/mL (LC-MS/MS; human, advanced solid tumours, plasma; intravenous, 0.3 mg weekly, day 1).
For `O=C(Nc1ccc([C@H]2[C@@H](F)[C@@H](F)C[C@@H](F)[C@H]2F)cc1)c1cn[nH]c1`, the hepatic clearance was 13 mL/min/kg (cryopreserved rat hepatocytes; 1 µM).
